Assay results collected from several papers.
Protocols differ between the studies behind these lines. Several values in a cell are separate wells, animals, samples, runs or records. ± gives the spread as reported.
ABCC3: ATP-binding cassette sub-family C member 3 (ABCC3, Homo sapiens, UniProt O15438)
Sequence of UniProt O15438 (whole entry, looked up): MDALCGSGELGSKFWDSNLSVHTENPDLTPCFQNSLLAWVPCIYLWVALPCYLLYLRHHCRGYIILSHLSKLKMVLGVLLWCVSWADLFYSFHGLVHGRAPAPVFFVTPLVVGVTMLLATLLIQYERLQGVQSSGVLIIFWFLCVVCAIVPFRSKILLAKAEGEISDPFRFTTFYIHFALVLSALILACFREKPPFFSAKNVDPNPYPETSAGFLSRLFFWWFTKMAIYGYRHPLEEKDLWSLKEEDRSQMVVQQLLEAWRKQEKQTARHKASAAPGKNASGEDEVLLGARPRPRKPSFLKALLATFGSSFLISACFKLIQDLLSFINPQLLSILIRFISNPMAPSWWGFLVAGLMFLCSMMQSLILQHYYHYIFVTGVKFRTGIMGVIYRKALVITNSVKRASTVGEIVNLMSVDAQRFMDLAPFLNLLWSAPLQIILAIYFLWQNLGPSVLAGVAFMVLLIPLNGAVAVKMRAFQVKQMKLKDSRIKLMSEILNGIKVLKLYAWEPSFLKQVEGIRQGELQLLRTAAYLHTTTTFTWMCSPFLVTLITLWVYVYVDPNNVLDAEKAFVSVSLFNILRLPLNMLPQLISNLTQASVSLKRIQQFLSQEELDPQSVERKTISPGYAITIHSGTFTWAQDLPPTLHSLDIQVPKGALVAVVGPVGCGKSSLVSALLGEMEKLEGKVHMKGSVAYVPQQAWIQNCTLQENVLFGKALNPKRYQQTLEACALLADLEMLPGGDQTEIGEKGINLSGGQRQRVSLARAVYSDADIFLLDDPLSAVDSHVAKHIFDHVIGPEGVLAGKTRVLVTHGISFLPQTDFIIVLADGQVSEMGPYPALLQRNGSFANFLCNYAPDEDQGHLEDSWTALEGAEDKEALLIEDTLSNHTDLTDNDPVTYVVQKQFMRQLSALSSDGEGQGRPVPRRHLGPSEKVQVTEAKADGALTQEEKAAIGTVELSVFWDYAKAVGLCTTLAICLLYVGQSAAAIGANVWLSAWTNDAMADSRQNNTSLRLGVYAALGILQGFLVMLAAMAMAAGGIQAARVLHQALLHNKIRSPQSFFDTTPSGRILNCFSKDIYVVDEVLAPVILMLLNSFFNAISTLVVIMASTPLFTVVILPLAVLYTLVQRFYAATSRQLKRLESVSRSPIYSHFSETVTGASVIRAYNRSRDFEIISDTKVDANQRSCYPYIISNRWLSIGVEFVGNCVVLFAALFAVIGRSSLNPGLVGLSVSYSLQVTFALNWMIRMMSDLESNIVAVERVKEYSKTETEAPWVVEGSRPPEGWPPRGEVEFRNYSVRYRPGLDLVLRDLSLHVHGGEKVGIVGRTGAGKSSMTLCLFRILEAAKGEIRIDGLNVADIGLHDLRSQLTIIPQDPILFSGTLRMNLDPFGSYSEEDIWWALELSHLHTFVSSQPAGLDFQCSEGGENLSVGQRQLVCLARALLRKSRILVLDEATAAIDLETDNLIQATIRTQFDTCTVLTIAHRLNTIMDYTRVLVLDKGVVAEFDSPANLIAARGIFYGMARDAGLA
KCNH2: Voltage-gated inwardly rectifying potassium channel KCNH2 (KCNH2, Homo sapiens, UniProt Q12809)
Sequence of UniProt P05177 (whole entry, looked up): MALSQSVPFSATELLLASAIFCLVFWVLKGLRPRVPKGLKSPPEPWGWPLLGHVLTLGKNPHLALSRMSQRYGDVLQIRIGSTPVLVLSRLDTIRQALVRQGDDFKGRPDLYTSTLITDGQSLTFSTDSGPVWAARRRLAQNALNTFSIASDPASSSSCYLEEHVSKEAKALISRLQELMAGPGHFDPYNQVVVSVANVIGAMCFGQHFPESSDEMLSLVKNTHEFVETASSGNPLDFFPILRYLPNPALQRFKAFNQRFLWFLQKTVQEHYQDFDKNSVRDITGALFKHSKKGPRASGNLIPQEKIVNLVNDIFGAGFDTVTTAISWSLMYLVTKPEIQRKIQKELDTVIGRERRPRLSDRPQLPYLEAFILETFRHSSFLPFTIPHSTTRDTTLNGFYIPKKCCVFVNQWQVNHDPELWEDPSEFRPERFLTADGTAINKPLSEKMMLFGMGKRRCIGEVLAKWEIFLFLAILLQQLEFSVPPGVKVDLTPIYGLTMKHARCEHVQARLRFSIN
Sequence of UniProt Q12809 (whole entry, looked up): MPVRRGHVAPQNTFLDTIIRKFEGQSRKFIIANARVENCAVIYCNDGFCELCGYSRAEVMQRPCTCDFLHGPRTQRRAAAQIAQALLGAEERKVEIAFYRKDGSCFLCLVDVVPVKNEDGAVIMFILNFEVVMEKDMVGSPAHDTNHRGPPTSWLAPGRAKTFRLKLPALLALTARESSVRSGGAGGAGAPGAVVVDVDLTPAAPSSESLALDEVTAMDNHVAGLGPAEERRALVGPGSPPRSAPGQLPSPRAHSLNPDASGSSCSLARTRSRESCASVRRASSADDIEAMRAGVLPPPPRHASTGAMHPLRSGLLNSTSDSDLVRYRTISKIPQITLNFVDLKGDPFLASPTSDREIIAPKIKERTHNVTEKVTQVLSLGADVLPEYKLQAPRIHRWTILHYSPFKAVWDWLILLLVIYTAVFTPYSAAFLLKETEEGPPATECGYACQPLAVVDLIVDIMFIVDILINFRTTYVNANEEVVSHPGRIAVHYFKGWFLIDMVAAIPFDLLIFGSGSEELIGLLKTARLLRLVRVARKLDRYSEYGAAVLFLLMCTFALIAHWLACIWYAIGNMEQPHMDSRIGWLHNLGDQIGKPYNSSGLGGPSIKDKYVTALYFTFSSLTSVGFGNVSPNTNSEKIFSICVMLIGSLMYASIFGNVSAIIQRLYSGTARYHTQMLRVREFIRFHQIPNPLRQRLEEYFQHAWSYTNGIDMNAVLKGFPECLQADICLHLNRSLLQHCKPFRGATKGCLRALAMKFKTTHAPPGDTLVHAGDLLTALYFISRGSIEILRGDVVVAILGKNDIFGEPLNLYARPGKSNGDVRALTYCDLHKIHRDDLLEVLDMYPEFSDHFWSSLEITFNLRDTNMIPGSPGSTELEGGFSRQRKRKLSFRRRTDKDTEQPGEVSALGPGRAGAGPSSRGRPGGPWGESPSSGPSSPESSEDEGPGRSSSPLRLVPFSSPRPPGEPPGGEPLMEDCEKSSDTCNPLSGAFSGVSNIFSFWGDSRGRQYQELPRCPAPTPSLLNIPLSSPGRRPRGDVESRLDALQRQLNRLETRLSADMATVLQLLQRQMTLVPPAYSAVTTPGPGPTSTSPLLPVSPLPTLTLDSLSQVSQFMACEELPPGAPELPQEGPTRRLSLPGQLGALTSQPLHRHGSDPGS

`CC1(C(=O)OC2OC(C(=O)O)C(O)C(O)C2O)CCC2(C)CCC3(C)C(=CC(=O)C4C5(C)CCC(O)C(C)(C)C5CCC43C)C2C1` (stereo not drawn) — result for “net transport ratio”: 3.7 ± 0.1 (ABCC3; substrate, vesicular transport, refers to: MRP3; inside-out membrane vesicles; 100 µM, 1 h; relative to: with over without vanadate).
Under “peak potential separation”, `Clc1cc2nc(c1)CNCc1cc(Cl)cc(n1)CNC2.[Cu+2]` is recorded as 102 mV (Cu(II)/Cu(I) redox couple; cyclic voltammetry; DMF; 0.1 M TBAP, 100 mV/s scan).
Under “log K1-11 stability constant”, `O=C(O)CN1CCN(CC(=O)O)CCN(Cc2cccc(P(=O)(O)O)n2)CC1` is recorded as 11.2 (Y3+; UV-vis spectrophotometric titration; [M(L)(OH)]2- complex).
The SUV of `O=C(Nc1cnccc1-c1ccc([18F])cc1)c1ccnc(NC(=O)C2CC2)c1` is reported as 0.63 ± 0.15 (GSK-3β imaging tracer; FVB/NJ mice, both sexes, brain; intravenous, 4 min, early frames, no P-gp inhibitor).
`Cc1cc(/C=C/C#N)cc(C)c1Oc1nc(NC2CCN(Cc3ccc(S(C)(=O)=O)cc3)CC2)nc2ncccc12` has an inhibition of 10.5% (KCNH2; hERG current, manual patch clamp; CHO stably expressing hERG; 0.3 µM).
For `[Cu+2].c1cc2nc(c1)CNCc1cccc(n1)CNC2`, “anodic peak potential” read -690 mV (Cu(II)/Cu(I) redox couple; cyclic voltammetry; DMF; together with: TBAP; relative to: Fc/Fc+).
`CNC(=O)C1CCCN(C(=O)C2CC3CCC2N3C(=O)[C@@H]2C[C@@H](O)CN2C(=O)NCc2cccc(Cl)c2F)C1` (mixture of isomers) gave a remaining activity of 108% and 106% and 105% (Cytochrome P450 1A2 (CYP1A2, Homo sapiens, UniProt P05177); preincubation with NADPH; human; 50 µM; relative to: negative control).
With `O=C(c1ccc(OCCN2CCCCC2)cc1)c1c(-c2ccc(O)cc2)sc2cc(O[C@@H]3O[C@H](C(=O)O)[C@@H](O)[C@H](O)[C@H]3O)ccc12` the Km was less than 5 µM (ABCC3; transporter uptake, substrate; Sf9; pH 7, cell membranes).
For `O=C1NC2(CC2)COc2ncc(F)cc2[C@H]2COCCN2c2ccn3ncc1c3n2`, the inhibition was 70.5 ± 3.41% (KCNH2; potassium current, whole-cell patch clamp; CHO cells expressing hERG; 40.00 µM).
`FC(F)(F)c1cc2nc(c1)CNCc1cc(C(F)(F)F)cc(n1)CNC2.[Cu+2]`: “cathodic peak potential” -858 mV (Cu(II)/Cu(I) redox couple; cyclic voltammetry; DMF; together with: TBAP; relative to: Fc/Fc+).
For `O=C(O)CN1CCN(Cc2cccc(C(=O)O)n2)CCN(CP(=O)(O)O)CC1`, “log K101 stability constant” read 23.8 (Y3+; UV-vis spectrophotometric titration; [M(L)]- complex).
`Ic1cc2nc(c1)CNCc1cc(I)cc(n1)CNC2.[Cu+2]` gave a half-wave potential of -687 mV (Cu(II)/Cu(I) redox couple; cyclic voltammetry; DMF; together with: TBAP; relative to: Fc/Fc+).
`O=C(Nc1cnccc1-c1ccc([18F])nc1)c1ccnc(NC(=O)C2CC2)c1` gave an SUV of 0.26 ± 0.12 (GSK-3β imaging tracer; FVB/NJ mice, both sexes, brain; intravenous, 4 min, early frames, no P-gp inhibitor).
`COc1cc2nc(c1)CNCc1cc(OC)cc(n1)CNC2.[Cu+2]` — result for “peak potential separation”: 118 mV (Cu(II)/Cu(I) redox couple; cyclic voltammetry; DMF; 0.1 M TBAP, 100 mV/s scan).
`O=C(c1ccc(OCCN2CCCCC2)cc1)c1c(-c2ccc(O[C@@H]3O[C@H](C(=O)O)[C@@H](O)[C@H](O)[C@H]3O)cc2)sc2cc(O)ccc12`: “efflux clearance share” roughly 90% (ABCC3; intestine and liver; in vivo extrapolation).

A few entries again:
`CC1(C(=O)OC2OC(C(=O)O)C(O)C(O)C2O)CCC2(C)CCC3(C)C(=CC(=O)C4C5(C)CCC(O)C(C)(C)C5CCC43C)C2C1` (stereo not drawn) — result for “net transport ratio”: 3.7 ± 0.1 (ABCC3; substrate, vesicular transport, refers to: MRP3; inside-out membrane vesicles; 100 µM, 1 h; relative to: with over without vanadate).
Under “peak potential separation”, `Clc1cc2nc(c1)CNCc1cc(Cl)cc(n1)CNC2.[Cu+2]` is recorded as 102 mV (Cu(II)/Cu(I) redox couple; cyclic voltammetry; DMF; 0.1 M TBAP, 100 mV/s scan).
